# Assay results of several laboratories.
# “And” joins repeats or separate records; there may be more than shown. ± marks the error that the study gave.
# Chain of UniProt Q9P2K8 (whole entry, looked up): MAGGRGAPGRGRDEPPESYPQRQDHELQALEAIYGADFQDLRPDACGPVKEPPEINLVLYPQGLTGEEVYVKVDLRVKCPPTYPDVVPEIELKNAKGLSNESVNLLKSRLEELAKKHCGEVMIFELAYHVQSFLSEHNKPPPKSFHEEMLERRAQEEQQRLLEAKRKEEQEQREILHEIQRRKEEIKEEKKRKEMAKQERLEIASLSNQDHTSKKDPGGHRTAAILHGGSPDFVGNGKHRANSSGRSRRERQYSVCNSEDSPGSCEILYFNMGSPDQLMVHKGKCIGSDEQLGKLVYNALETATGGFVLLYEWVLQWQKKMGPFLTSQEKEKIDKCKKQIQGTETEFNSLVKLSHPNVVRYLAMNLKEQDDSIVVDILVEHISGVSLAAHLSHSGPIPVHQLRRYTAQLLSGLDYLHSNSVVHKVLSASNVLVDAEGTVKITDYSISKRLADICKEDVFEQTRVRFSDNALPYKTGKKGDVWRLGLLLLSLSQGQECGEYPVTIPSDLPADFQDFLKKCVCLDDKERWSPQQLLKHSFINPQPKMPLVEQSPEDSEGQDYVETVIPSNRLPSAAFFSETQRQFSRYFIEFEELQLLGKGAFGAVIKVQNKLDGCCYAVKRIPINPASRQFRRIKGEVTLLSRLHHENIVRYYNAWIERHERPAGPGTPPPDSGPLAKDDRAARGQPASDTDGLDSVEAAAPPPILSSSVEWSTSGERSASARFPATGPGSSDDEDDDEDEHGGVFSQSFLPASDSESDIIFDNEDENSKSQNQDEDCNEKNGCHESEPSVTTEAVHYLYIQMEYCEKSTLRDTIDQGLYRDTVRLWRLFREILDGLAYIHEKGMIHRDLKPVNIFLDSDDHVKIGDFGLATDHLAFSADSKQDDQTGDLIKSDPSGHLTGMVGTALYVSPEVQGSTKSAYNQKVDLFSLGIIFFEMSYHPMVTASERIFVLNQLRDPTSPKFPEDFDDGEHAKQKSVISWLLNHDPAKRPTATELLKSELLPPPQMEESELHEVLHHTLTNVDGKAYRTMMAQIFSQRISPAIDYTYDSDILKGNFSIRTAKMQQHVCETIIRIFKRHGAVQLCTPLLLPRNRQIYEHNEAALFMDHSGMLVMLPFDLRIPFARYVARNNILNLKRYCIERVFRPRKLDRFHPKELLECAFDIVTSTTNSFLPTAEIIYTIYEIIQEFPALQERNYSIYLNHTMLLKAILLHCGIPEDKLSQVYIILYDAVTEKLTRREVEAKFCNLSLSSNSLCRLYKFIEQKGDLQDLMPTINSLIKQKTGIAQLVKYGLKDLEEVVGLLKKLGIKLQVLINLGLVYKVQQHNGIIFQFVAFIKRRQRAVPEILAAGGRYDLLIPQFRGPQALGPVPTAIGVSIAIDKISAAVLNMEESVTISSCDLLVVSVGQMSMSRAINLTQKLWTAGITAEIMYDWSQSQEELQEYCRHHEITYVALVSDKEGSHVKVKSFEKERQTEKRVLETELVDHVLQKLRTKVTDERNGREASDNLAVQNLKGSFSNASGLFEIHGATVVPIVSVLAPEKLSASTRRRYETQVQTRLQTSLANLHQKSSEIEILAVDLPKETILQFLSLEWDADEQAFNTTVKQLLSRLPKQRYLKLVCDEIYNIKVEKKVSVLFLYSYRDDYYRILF
# Chain of UniProt Q9NRH2 (whole entry, looked up): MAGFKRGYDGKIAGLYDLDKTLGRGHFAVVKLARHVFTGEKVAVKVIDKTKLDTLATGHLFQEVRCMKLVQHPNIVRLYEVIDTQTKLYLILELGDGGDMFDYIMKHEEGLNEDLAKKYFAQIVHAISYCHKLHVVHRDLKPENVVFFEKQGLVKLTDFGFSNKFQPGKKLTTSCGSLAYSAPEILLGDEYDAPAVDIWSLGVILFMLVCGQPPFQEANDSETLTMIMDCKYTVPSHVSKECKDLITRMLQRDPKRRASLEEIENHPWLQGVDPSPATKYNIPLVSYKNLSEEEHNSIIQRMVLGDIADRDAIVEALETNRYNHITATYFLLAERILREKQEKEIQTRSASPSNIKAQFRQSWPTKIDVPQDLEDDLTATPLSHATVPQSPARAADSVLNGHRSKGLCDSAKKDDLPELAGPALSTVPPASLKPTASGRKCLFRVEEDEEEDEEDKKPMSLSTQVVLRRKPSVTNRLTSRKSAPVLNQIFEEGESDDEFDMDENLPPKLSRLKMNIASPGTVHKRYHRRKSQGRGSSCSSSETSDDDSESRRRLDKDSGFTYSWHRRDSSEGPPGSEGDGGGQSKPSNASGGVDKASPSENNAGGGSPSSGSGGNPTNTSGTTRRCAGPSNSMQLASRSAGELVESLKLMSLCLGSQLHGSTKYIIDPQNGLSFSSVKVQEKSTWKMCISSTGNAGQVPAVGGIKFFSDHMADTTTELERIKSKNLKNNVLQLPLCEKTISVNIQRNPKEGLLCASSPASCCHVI
SMILES,tested on,assay,system,conditions,how to read,quantity,value
COc1ccccc1-c1n[nH]c2nc(N[C@H]3CC[C@H](NS(=O)(=O)CC(C)C)CC3)ncc12,,"bead binding, competition bead pull-down, refers to: LINJ.23.0310",Leishmania donovani extract,10 µM,baseline: vehicle,relative abundance,1.39
Cc1cc(C(=O)Nc2nc3cccc(C)c3n2[C@H]2CCCCN(C(=O)/C=C/CN(C)C)C2)ccn1,Trypanosoma brucei brucei,,2T1 CLK1 C215S overexpressing,"0.00038 µM, 72 h",,survival,101% and 104% and 87.9% and 89.4% and 105% and 98.6%
CC[C@H](C)[C@@H]1NC(=O)[C@H](CO)NC(=O)C(C)(CCCCN)NC(=O)[C@@H]2CSSC[C@@H](C(=O)N[C@@H](Cc3ccc(O)cc3)C(N)=O)NC(=O)[C@H](CCCCN)NC(=O)[C@@H]3CSSC[C@H](NC(=O)[C@H](CCCNC(=N)N)NC(=O)C(C)(CC(C)C)NC(=O)[C@H](CC(=O)O)NC(=O)[C@H](CC(=O)O)NC(=O)[C@H](CCC(=O)O)NC(=O)[C@H](CC(N)=O)NC(=O)[C@H](Cc4c[nH]c5ccccc45)NC(=O)C(C)(CC)NC(=O)CNC(=O)[C@H](CC(N)=O)NC(=O)[C@@H](NC(=O)CNC(=O)[C@H](Cc4ccccc4)NC(=O)CN)CSSC[C@H](NC(=O)[C@H](Cc4ccc(O)cc4)NC(=O)CNC(=O)CNC(=O)[C@H](CCCCN)NC(=O)[C@H](Cc4ccc(O)cc4)NC(=O)[C@H]4CCCN4C(=O)[C@@H]4CCCN4C1=O)C(=O)N[C@@H](C)C(=O)N[C@@H](CCCCN)C(=O)N1CCC[C@@H]1C(=O)NCC(=O)N[C@@H](Cc1ccccc1)C(=O)N[C@@H](C(C)C)C(=O)N3)C(=O)N[C@@H](Cc1c[nH]cn1)C(=O)NC(C)(C)C(=O)N[C@@H](Cc1c[nH]cn1)C(=O)N2 (stereo partly shown),Streptococcus pneumoniae,,BS-442,24 h,,MBC,1 µM
COc1ccccc1-c1n[nH]c2nc(NC3CCN(C(=O)Cc4ccc(F)cc4F)CC3)ncc12,,"bead binding, competition bead pull-down, refers to: LINJ.26.2000",Leishmania donovani extract,10 µM,baseline: vehicle,relative abundance,0.98
CC(C)C[C@H](NC(=O)[C@@H](N)CO)C(=O)N[C@@H](Cc1c[nH]c2ccccc12)C(=O)N[C@@H](CCC(=O)O)C(=O)N[C@@H](CC(N)=O)C(=O)N[C@@H](Cc1ccccc1)C(=O)N[C@@H](CCCCN)C(=O)N[C@@H](CC(N)=O)C(=O)N[C@@H](C)C(=O)NCC(=O)N[C@@H](CCCCN)C(N)=O,Gram-negative bacteria,,,,,geometric mean MIC,256 µM
CN(C)c1nc(NCc2cccc(-c3ccccc3)c2)c(/N=N/c2ccc(Cl)cc2)c(N(C)C)n1,Ostrinia furnacalis,leaf dipping,,"500 mg/L, 96 h",,mortality,96.7 ± 5.77%
COc1ccc(Cn2c3cc(=O)n(Cc4cccc(Cl)n4)c(C)c3c(=O)n2-c2ccccn2)cc1,human respiratory syncytial virus,,recombinant reporter virus,"concentration not given, scale 0 to 100, added: cytidine 11.1 µM",,normalized viral replication,0
CC[C@H](C)[C@H](NC(=O)[C@H](CCCCN)NC(=O)[C@H](CC(=O)O)NC(=O)[C@H](CC(C)C)NC(=O)[C@@H](NC(=O)[C@H](CC(N)=O)NC(=O)[C@H](CC(C)C)NC(=O)[C@@H](NC(=O)[C@H](Cc1ccccc1)NC(=O)[C@H](CCCCN)NC(=O)[C@H](CCCCN)NC(=O)CNC(=O)[C@H](C)NC(=O)[C@H](CC(N)=O)NC(=O)[C@H](CCCCN)NC(=O)[C@H](Cc1ccccc1)NC(=O)[C@H](CC(N)=O)NC(=O)[C@H](CCC(=O)O)NC(=O)[C@H](Cc1c[nH]c2ccccc12)NC(=O)[C@H](CC(C)C)NC(=O)[C@@H](N)CO)[C@@H](C)CC)[C@@H](C)CC)C(=O)N[C@@H](CCCNC(=N)N)C(=O)N[C@H]1CSSC[C@@H](C(=O)N[C@@H](CCCNC(=N)N)C(=O)N[C@H](C(=O)O)[C@@H](C)O)NC(=O)CNC(=O)CNC(=O)[C@H](C)NC(=O)[C@H](C(C)C)NC(=O)[C@H](CCCNC(=N)N)NC1=O,Gram-positive bacteria,,,,,geometric mean MIC,25.4 µM
O=C1NC2(CC2)COc2ncc(F)cc2[C@H]2COCCN2c2ccn3ncc1c3n2,,,"Sprague-Dawley rat, female, serum","oral, 10 mg/kg/day, end of treatment, 4-week subacute toxicity",,serum total bilirubin,0.7 ± 0.3 µmol/L
CC(C)C[C@@H]1NC(=O)[C@H](CCC2CCCCC2)NC(=O)[C@H](CC(C)C)NC(=O)[C@H](C(C)C)NC(=O)[C@]2(C)CCCN2C(=O)[C@H](C(C)C)NC(=O)[C@H](Cc2ccccc2)NC(=O)CSCCNC(=O)[C@H](C(C)(C)O)NC1=O,HIV-1,viral replication,MT4,,baseline: cell EC50 over protease IC50,EC50/IC50 ratio,718
CCc1nn(C)c2nc(-c3ccc(C(=O)O)cc3)nc(NCc3ccccc3)c12,Cryptosporidium parvum,,HCT-8,"6 x EC90, 24 h",baseline: DMSO control,parasite number,45% and 44% and 37.8% and 30.6%
COc1ccc(C2=[N+]([O-])c3ccccc3N3CC(C)(C)CN=C23)cc1,Clostridioides difficile,microbial growth,,,,MIC90,8 µg/mL
CN(CCO)CCO.O=C(O)C(Cl)Cl,Solanum nigrum,herbicidal activity,,"15 mg/mL, 21 days, pre-emergence greenhouse",,inhibition,0%
Fc1cccc(COc2ccc(Nc3ncnc4ccc(-c5cccc(CN6CCCCC6)c5)cc34)cc2Cl)c1,Trypanosoma cruzi,"intracellular amastigote growth, β-galactosidase CPRG","3T3, Tulahuen, β-galactosidase-expressing",96 h,,EC50,1.5 µM
CC1COC2=C1C(=O)C(=O)c1c2ccc2c1C(OC(=O)CNC(=O)C(N)CCC(=O)O)CCC2(C)C (mixture of isomers),Cutibacterium acnes,,,"10 µmol/mL, 48 h, anaerobic, 10 µL on 6 mm disc",,inhibition zone diameter,17.3 ± 0.8 mm
CN(C)[C@H]1C[C@@]23CC[C@@]4(O2)C(=CC[C@]2(C)[C@@H](c5ccc6ccncc6c5)CC[C@H]24)C=C3[C@@H](O)[C@@H]1O,"eIF-2-alpha kinase GCN2 (EIF2AK4, Homo sapiens, UniProt Q9P2K8)","ATP probe labelling, inhibitor, KiNativ profiling",,0.1 µM,,inhibition,6.9%
CC(C)[C@H]1NC(=O)[C@H](Cc2ccccc2)NC(=O)[C@@H](C(C)C)NC(=O)[C@@H](C)NC(=O)[C@H](CO)NC(=O)[C@@H](Cc2c(-c3ccc(-c4ccc(-c5ccccc5)cc4)cc3)[nH]c3ccccc23)NC(=O)[C@@H](CO)NC1=O,Mycobacterium marinum,,,,,MIC90,39.8 µM
CN(C)c1nc(NCc2ccc(F)c(C(F)(F)F)c2)c(/N=N/c2ccc(Cl)cc2)c(N(C)C)n1,Ostrinia furnacalis,leaf dipping,,"50 mg/L, 96 h",,mortality,46.7 ± 5.8%
CCCCCCCC(=O)NCCCC[C@H](NC(=O)CCCCCCC)C(=O)N[C@@H](CCCCNC(=O)CCCCCCC)C(=O)NCC(=O)NCC(=O)NCC(=O)N[C@@H](CS)C(=O)N[C@@H](CCCNC(=N)N)C(=O)N[C@@H](CCCCN)C(=O)N1CCC[C@H]1C(=O)N[C@@H](CS)C(=O)N[C@@H](CCCNC(=N)N)C(=O)N[C@@H](CCCCN)C(=O)N1CCC[C@H]1C(=O)N[C@@H](CS)C(=O)N[C@@H](CCCNC(=N)N)C(=O)N[C@@H](CCCCN)C(=O)N1CCC[C@H]1C(N)=O,Candida,,,twelve fungal strains,,geometric mean MIC,11.3 µM
FC(F)(F)c1cccc(CNc2nc(NC3CCN(Cc4ccccc4)CC3)c3nc[nH]c3n2)c1,Cryptococcus neoformans,"RNA-seq, refers to: KCS1 (CNAG_02897)",,"48 µg/mL, 3 h",baseline: untreated,mRNA fold change,1.05
CC(C)[C@H]1NC(=O)[C@H](Cc2ccccc2)NC(=O)[C@@H](C(C)C)NC(=O)[C@@H](C)NC(=O)[C@H](CO)NC(=O)[C@H](Cc2c(-c3ccc(-c4ccc5ccccc5c4)cc3)[nH]c3ccccc23)NC(=O)[C@@H](C)NC1=O,Mycobacterium marinum,,,,,MIC90,> 100 µM
CCCC(=O)OCCSC[C@H](N)C(=O)N[C@H](CCN)C(=O)N[C@@H](CCN)C(=O)N[C@@H](CCN)C(=O)N[C@@H](CC(C)C)C(=O)N[C@H](Cc1ccccc1)C(=O)N[C@@H](CCN)C(=O)N[C@@H](CCN)C(=O)N[C@@H](CC(C)C)C(N)=O,Acinetobacter calcoaceticus,BHI agar spot plating,,"24 h, 37 °C",,MBC,> 128 µM
CS(C)(=O)=Nc1ccc(-c2ccc(-c3nc4cc(O[C@@H]5CO[C@H]6[C@@H]5OC[C@H]6O)[nH]c4cc3F)cc2)cc1,"SNF-related serine/threonine-protein kinase (SNRK, Homo sapiens, UniProt Q9NRH2)","enzyme activity, inhibitor",,10 µM,,inhibition,-18%
O=[N+]([O-])c1ccc(C2=[N+]([O-])c3ccccc3N3CCCN=C23)cc1,Clostridioides difficile,microbial growth,,,,MIC90,0.5 µg/mL
CN(C(=O)c1ccn2ncc(-c3ccc(C(N)=O)cc3)c2c1)c1ccc(C#N)cn1,Cryptosporidium parvum,,"UGA1 Nluc, IFN-gamma knockout C57BL/6 mice, faeces","oral, 10 mg/kg daily, 72 h post infection, treatment days 11-17",higher means more parasites,faecal Nluc luminescence,97 a.u. and 299 a.u. and 14 a.u. and 78 a.u. and 104 a.u.
CN(C)c1nc(NCc2ccc(-c3ccccc3)cc2)c(/N=N/c2ccc(Cl)cc2)c(N(C)C)n1,Ostrinia furnacalis,leaf dipping,,"500 mg/L, 96 h",,mortality,100%
C[N+]1=C2C(c3ccccc3)=[N+]([O-])c3ccccc3N2CCC1,Clostridioides difficile,microbial growth,,,,MIC90,32 µg/mL
Cc1cc(Oc2nc(N3CC[C@@H](c4ccncc4)C3)ncc2F)[nH]n1,bone cancer cell lines,cell proliferation,,average over lines,,IC50,91.2 µM
CC[C@H](C)CCCCC(=O)N[C@@H](CCN)C(=O)N[C@H](C(=O)N[C@@H](CCN)C(=O)N[C@H]1CCNC(=O)[C@H]([C@@H](C)O)NC(=O)[C@H](CCN)NC(=O)[C@H](CCN)NC(=O)[C@H](CC(C)C)NC(=O)[C@@H](CC(C)C)NC(=O)[C@H](CCN)NC1=O)[C@@H](C)O,Escherichia coli,daily serial passaging,ATCC 8739,"highest sub-MIC, 44 days",baseline: initial MIC,MIC fold change,4.21
CC(=O)CCC1C(=O)NC(C(C)C)C(=O)NC(Cc2cc(O)cc(F)c2)C(=O)N2CCCC(N2)C(=O)OC(C(C)=CC=CC(=O)N2CCCCO2)CC=CC=CC(O)C(C)C1O (stereo not shown),Hepatitis C virus,viral replication,"Huh7, Con1 replicon",5% fetal bovine serum,,EC50,0.015 ± 0.001 µM
O=C(c1cncc(-c2ccc3ncnc(Nc4ccc(OCc5cccc(F)c5)c(Cl)c4)c3c2)c1)N1CCOCC1,Trypanosoma cruzi,"intracellular amastigote growth, β-galactosidase CPRG","3T3, Tulahuen, β-galactosidase-expressing","10 µM, 96 h",,inhibition,-2%
S=C=NCc1ccccc1,Phelipanche ramosa,"seed germination, stimulant",seeds,1 µM,baseline: (±)-GR24,maximum germination stimulation,94%
CC(C)(C)C(=O)OCOP(=O)(OCOC(=O)C(C)(C)C)C1CCCN(O)C1=O (stereo not shown),SK-OV-3,,,,,log LC50,> -4 log M
CCCN1C(=O)C(CCC)(C(=O)OCC)Oc2cc(F)ccc21 (stereo not shown),Setaria viridis,"fresh weight, greenhouse postemergence",,"postemergence, 150 g ai/ha, 21 days",,inhibition,32.2 ± 0.75%
CC[C@H](C)[C@H](NC(=O)[C@H](C)NC(=O)CNC(=O)[C@H](C)NC(=O)[C@H](CCCCN)NC(=O)[C@H](CO)NC(=O)[C@H](C)NC(=O)[C@H](CCSC)NC(=O)CN)C(=O)N[C@@H](C)C(=O)NCC(=O)N[C@@H](CCCCN)C(=O)N[C@H](C(=O)N[C@@H](C)C(=O)N[C@@H](CCCCN)C(=O)N[C@H](C(=O)N[C@@H](C)C(=O)N[C@@H](CC(C)C)C(=O)N[C@@H](CCCCN)C(=O)N[C@@H](C)C(=O)N[C@@H](CC(C)C)C(N)=O)C(C)C)[C@@H](C)CC,Escherichia coli,,3538 wild type,added: ampicillin,,combination index,0.94
CC(C)[C@H]1NC(=O)[C@H](Cc2ccccc2)NC(=O)[C@@H](C(C)C)NC(=O)[C@@H](C)NC(=O)[C@H](CO)NC(=O)[C@@H](Cc2c(-c3ccc(-c4ccccc4)cc3)[nH]c3ccccc23)NC(=O)[C@@H](CO)NC1=O,Mycobacterium marinum,,,,,MIC90,53.8 µM
CCOC(=O)C1(Cc2ccc(C#N)cc2F)Oc2cc(F)ccc2N(Cc2ccc(C#N)cc2F)C1=O (stereo not shown),Setaria viridis,"fresh weight, greenhouse postemergence",,"postemergence, 150 g ai/ha, 21 days",,inhibition,43.4 ± 0.62%

# Some of these lines once more:
SMILES,tested on,assay,system,conditions,how to read,quantity,value
O=C(c1cncc(-c2ccc3ncnc(Nc4ccc(OCc5cccc(F)c5)c(Cl)c4)c3c2)c1)N1CCOCC1,Trypanosoma cruzi,"intracellular amastigote growth, β-galactosidase CPRG","3T3, Tulahuen, β-galactosidase-expressing","10 µM, 96 h",,inhibition,-2%
S=C=NCc1ccccc1,Phelipanche ramosa,"seed germination, stimulant",seeds,1 µM,baseline: (±)-GR24,maximum germination stimulation,94%
CC(C)(C)C(=O)OCOP(=O)(OCOC(=O)C(C)(C)C)C1CCCN(O)C1=O (stereo not shown),SK-OV-3,,,,,log LC50,> -4 log M
CCCN1C(=O)C(CCC)(C(=O)OCC)Oc2cc(F)ccc21 (stereo not shown),Setaria viridis,"fresh weight, greenhouse postemergence",,"postemergence, 150 g ai/ha, 21 days",,inhibition,32.2 ± 0.75%
CC[C@H](C)[C@H](NC(=O)[C@H](C)NC(=O)CNC(=O)[C@H](C)NC(=O)[C@H](CCCCN)NC(=O)[C@H](CO)NC(=O)[C@H](C)NC(=O)[C@H](CCSC)NC(=O)CN)C(=O)N[C@@H](C)C(=O)NCC(=O)N[C@@H](CCCCN)C(=O)N[C@H](C(=O)N[C@@H](C)C(=O)N[C@@H](CCCCN)C(=O)N[C@H](C(=O)N[C@@H](C)C(=O)N[C@@H](CC(C)C)C(=O)N[C@@H](CCCCN)C(=O)N[C@@H](C)C(=O)N[C@@H](CC(C)C)C(N)=O)C(C)C)[C@@H](C)CC,Escherichia coli,,3538 wild type,added: ampicillin,,combination index,0.94
